Results from different studies.
Cell line: SK-OV-3

SMILES | read-out | technique | concentration | time | direction | measurement | result
O=C(c1cc(Cc2n[nH]c(=O)c3ccccc23)ccc1F)N1CC(CNC2CC2)C1 | colony formation |  |  |  |  | IC50 | 1.78 µM
CC(C)(C)C(=O)OCOP(=O)(OCOC(=O)C(C)(C)C)C1CCCN(O)C1=O (centres unmarked) |  |  |  |  |  | log TGI | -5.05 log M
Cc1cc(Oc2nc(N3CC[C@@H](c4ccncc4)C3)ncc2F)[nH]n1 | cell proliferation |  |  |  |  | IC50 | > 100 µM
CCCc1cc2cc(-n3nc(CC)c4c3CC3(CCC3)CC4=O)cc(N3CCC(O)CC3)c2c(=O)[nH]1 | cell growth or viability | MTS |  |  |  | IC50 | 3.53 µM
Cc1cc(Nc2nc(C[C@@]3(C(=O)O)CCN(Cc4cccc(Cl)c4F)[C@H](C)C3)cc(C)c2F)[nH]n1 | cell growth or viability | ATP luminescence |  | 5 days |  | IC50 | > 10 µM
CC1OC2OC3C4=C(OC3(C)C12O)C(=O)c1c(O)cccc1C4=O (centres unmarked) |  | sulforhodamine B | 10 µg/mL | 48 h | negative means cell kill | growth percent | -78.7%
CCCc1cc2cc(-n3nc(C)c4c3CC3(CCC3)CC4=O)cc(N3CCC(O)CC3)c2c(=O)[nH]1 | cell growth or viability | MTS |  |  |  | IC50 | 7.73 µM
O=C1C=CC(=C(c2ccc(O)cc2)c2c(C#Cc3ccc(O)cc3)cccc2-c2ccc(O)cc2)C=C1 | cell growth or viability | MTT |  | 48 h |  | IC50 | 12.1 µM
